Earlier results as cited in several papers.
Lines come from different studies, so protocols differ.

The kcat/Km of `CC=O` is reported as 730000 M⁻¹ s⁻¹ (ADH1 H48S Saccharomyces cerevisiae; enzyme activity, substrate; pH 7.3, 30 °C).
The acyl-CoA reduction of `CCC/C=C/C/C=C/C=C/C=N/NN=O` is reported as roughly 40% (fatty acyl-CoA ligases, long chain; cultured cells; concentration not given).
`O=C(C1CCCCC1)N1CC(=O)N2CCc3ccccc3[C@H]2C1` gave an EC50 of roughly 20 µM (TRPM8, human; agonist).
With `O=C(O)C(F)(F)C(F)(F)C(F)(F)C(F)(F)C(F)(F)C(F)(F)C(F)(F)F` the Jmax was 141 pmol/min (OATP2B1; apical influx; Caco-2 cells; gut, area 1 cm²).
`O=C(NCCCNc1nc(Nc2ccc(N3CCOCC3)cc2)ncc1C1CC1)C1CCC1` has an IC50 of 0.006 µM (TBK1).
For `COc1ccc2c(c1)[nH]c1c(C)nccc12`, the IC50 was 0.05 µM (human CLK4; kinase activity, inhibitor).
`CC1(C)NC(=O)C(Cc2ccc(O)cc2)NC(=O)CNC(=O)C(Cc2ccc3ccccc3c2)NC(=O)C(CCCN=C(N)N)NC1=O` (stereo not shown) has an EC50 of 100 µM (human CXCR4 H113A mutant).
For `N#CC(=Cc1ccc(O)cc1)C(=O)O`, the Ki was 60 µM (monocarboxylate transporter (human); monocarboxylate transport, inhibitor; human red blood cells).
`c1c[nH]cn1` — result for “apparent association rate constant”: 1e+06 M⁻¹ s⁻¹ (sperm whale metmyoglobin H64A; pH 7).
Under “IC50 fold change”, `Cc1ccnc2c1NC(=O)c1cccnc1N2C1CC1` is recorded as 1.2 fold (HIV-1 reverse transcriptase K101Q; cell-based; relative to: mutant over wild type).
`Brc1c(Br)c(Br)c2n[nH]nc2c1Br` has a potency reduction of 2.8 fold (CK2 I174A mutant; concentration not given; relative to: wild-type CK2 over I174A).
With `CCCc1cc(F)ccc1C(O)c1ncc[nH]1` (stereo not shown) the IC50 was 0.344 µM (PAR2 (F2RL1); antagonist).
The kcat of `CC(C)(O/N=C(\C(=O)N[C@@H]1C(=O)N2C(C(=O)[O-])=C(C[N+]3(CCNC(=O)c4ccc(O)c(O)c4Cl)CCCC3)CS[C@H]12)c1csc(N)n1)C(=O)O` is reported as greater than 0.13 s⁻¹ (KPC-3; hydrolysis by enzyme, substrate).

Some of these lines once more:
`O=C(C1CCCCC1)N1CC(=O)N2CCc3ccccc3[C@H]2C1` gave an EC50 of roughly 20 µM (TRPM8, human; agonist).
With `O=C(O)C(F)(F)C(F)(F)C(F)(F)C(F)(F)C(F)(F)C(F)(F)C(F)(F)F` the Jmax was 141 pmol/min (OATP2B1; apical influx; Caco-2 cells; gut, area 1 cm²).
